Published values pooled from the literature.
Lines come from different studies, so protocols differ. “And” joins repeats or separate records; there may be more than shown. ± gives the spread as reported. Converted amounts (≈) assume the structure as drawn.

The IC90 of `N#Cc1ncn(COCCBr)c1C#N` is reported as 29 µg/mL (≈ 114 µM) (Mammarenavirus lassaense; viral replication; Vero; 48 h).
`[O-][N+]1=C(c2ccc(Cl)cc2)C2=NCCCN2c2ccccc21` gave an MIC of 16 to 64 µg/mL (Clostridium perfringens).
`N#Cc1ncn(COCCOCc2ccccc2)c1C#N` gave an IC90 of 28 µg/mL (≈ 99.2 µM) (Mammarenavirus lassaense; viral replication; Vero; 48 h).
For `Cc1ccc(N2CC3CC(C2)N3)cc1C(=O)NC1(c2ccc3c4c(cccc24)C(=O)N3C)CC1`, the inhibition was 70% (SARS-CoV-2; viral replication; Vero C1008, wild type; 0.05144 µM).
With `CC[C@H](C)[C@H](NC(=O)[C@H](CCCCN)NC(=O)[C@H](CCCCN)NC(=O)[C@H](CC(C)C)NC(=O)[C@H](Cc1c[nH]c2ccccc12)NC(=O)CN)C(=O)NCC(=O)N[C@@H](CCCCN)C(=O)N[C@@H](CCCCN)C(=O)N[C@H](C(=O)N[C@@H](CCC(=O)O)C(=O)N[C@@H](CCCNC(=N)N)C(=O)N[C@H](C(=O)NCC(=O)N[C@@H](CCC(N)=O)C(=O)N[C@@H](Cc1c[nH]cn1)C(=O)N[C@H](C(=O)N[C@@H](CCCNC(=N)N)C(=O)N[C@@H](CC(=O)O)C(=O)N[C@@H](C)C(=O)N[C@H](C(=O)N[C@H](C(=O)N[C@@H](CCC(N)=O)C(=O)N[C@H](C(=O)N[C@H](C(=O)NCC(=O)N[C@H](C(=O)N[C@@H](C)C(=O)N[C@@H](CCC(N)=O)C(=O)N[C@@H](CCC(N)=O)C(=O)N[C@@H](C)C(=O)N[C@@H](C)C(=O)N[C@@H](CC(N)=O)C(=O)N[C@H](C(=O)N[C@@H](C)C(=O)N[C@@H](C)C(=O)N[C@H](C(=O)N[C@@H](CC(C)C)C(=O)N[C@@H](CCCCN)C(N)=O)[C@@H](C)O)C(C)C)C(C)C)[C@@H](C)CC)[C@@H](C)O)[C@@H](C)CC)[C@@H](C)O)[C@@H](C)O)C(C)C)[C@@H](C)CC` the MIC was 0.5 µg/mL (Escherichia coli; broth microdilution; RKI 131/03, CAMHB with 10% mouse serum).
`CC(C)CC(C(=O)N1CC2(CC1C#N)C(=O)Nc1ccccc12)N(C)C(=O)c1cc2c(F)cc(F)c(F)c2[nH]1` (centres unmarked) has an inhibition of 0% (pangolin coronavirus; viral replication; 0.0004572 µM).
`C[N+]1=C2C(c3ccc([N+](=O)[O-])cc3)=[N+]([O-])c3ccccc3N2CCC1` gave an MIC90 of 1 µg/mL (Clostridium perfringens).
For `O=[N+]([O-])c1ccc(-n2nc(-c3ccccc3)cc2-c2ccc(F)cc2)c([N+](=O)[O-])c1`, “viral particle reduction” read no more than 70% (Japanese encephalitis virus; plaque; Neuro2a, SA14-14-2; 15 µM, 72 h, post-treatment).
`CN1CCN(C(=O)N[C@@H](Cc2ccccc2)C(=O)N[C@H](/C=C/S(=O)(=O)c2ccccc2)CCc2ccccc2)CC1` gave an IC50 of 520 ± 170 nM (Severe acute respiratory syndrome coronavirus; viral replication; Vero 76, Urbani).
`CN[C@@H]1[C@H](O)[C@H](NC)[C@H]2O[C@]3(O)[C@H](O[C@@H]2[C@H]1O)O[C@H](C)C[C@@]3(O)CNCc1ccc(OC(F)(F)F)cc1` — result for “inhibition zone diameter”: 21 mm (Legionella pneumophila; ATCC 33153; 40 µg per disc, 48 h).
The selectivity index of `Cl.O=C(O)CCCC1C2CCCN3CCCC(CN1Cc1ccc(Cl)c(Cl)c1)C23` (centres unmarked) is reported as greater than 2.54 (Ebola virus; EBOV GP pseudotyped HIV; baseline: CC50 over IC50).
`Cc1ccc(NS(=O)(=O)c2c(C(=O)N3CCCCCC3)c(C)n(C)c2C)c(Cl)c1` has an infection of 0.858% and 1.02% and 0.533% (Vaccinia virus; viral infection; HaCaT; 11.11 µM, 36 h; baseline: untreated).
For `CC(=O)OC1(C)CC(C=C(C)CCC=C(C)C)OC2(C=C(CO)C3CC(=O)C(C)=CC3O2)C1` (centres unmarked), the EC50 was 700 nM (SARS-CoV-2 Omicron BA.2; viral replication, dsRNA staining; Calu-3).
`Oc1c(Cl)cc(Cl)c2cccnc12` gave an MIC of 37.4 µM (Shigella dysenteriae; microbial growth, agar dilution).
`CN[C@@H]1[C@H](O)[C@H](NC)[C@H]2O[C@]3(O)[C@H](O[C@@H]2[C@H]1O)O[C@H](C)C[C@H]3NC(=O)Cc1ccc(F)cn1` gave an MIC of 25 µg/mL (Bacillus anthracis; microbial growth; STERNE34F2).
`CCCCCCCCCCCCC1O[C@@H]2C[C@H]3[C@@H]4CCC5=CC(=O)C=C[C@]5(C)[C@H]4[C@@H](O)C[C@]3(C)[C@]2(C(=O)CO)O1` (some centres unmarked) gave an IC50 of 6400 nM (Severe acute respiratory syndrome coronavirus 2; viral replication; VeroE6/TMPRSS2).
The MIC50 of `[O-][N+]1=C(Cc2ccccc2)C2=NCCCN2c2ccccc21` is reported as greater than 32 µg/mL (Clostridium perfringens; microbial growth).
`O=C(C=Cc1ccc(O)c(O)c1)OC1CC(O)(C(=O)O)CC(OC(=O)C=Cc2ccc(O)c(O)c2)C1O` (centres unmarked) has an inhibition of 0% (Severe acute respiratory syndrome coronavirus 2; cytopathic effect, inhibitor; Vero C1008; 3.125 µM).
`COc1ccc(C2=[N+]([O-])c3ccccc3N3CC(C)(C)CN=C23)cc1` gave an MIC50 of 4 µg/mL (≈ 11.9 µM) (Clostridium perfringens; microbial growth).
With `COC(=O)c1ncn(C2CC(O)C(CO)O2)c1C(=O)OC` (centres unmarked) the IC50 was 32 µg/mL (Zaire ebolavirus; viral replication, inhibitor; Vero; 72 h).
`CC(C)Oc1ccc(-n2cnc3cc(/C=C\c4ccc(C(C)(C)O)cc4)ccc32)cc1` has an Emax of 97.5 ± 3.26% (Lassa mammarenavirus; viral replication; Huh-7; concentration not given).
With `NNC(=O)c1ncn(C2OC(CO)C(O)C2O)c1C(=O)NN` (centres unmarked) the IC90 was greater than 50 µg/mL (Mammarenavirus lassaense; viral replication; Vero; 48 h).
With `O=S(=O)(O)c1cccc(-c2c3nc(c(-c4cccc(S(=O)(=O)O)c4F)c4ccc([nH]4)c(-c4cccc(S(=O)(=O)O)c4F)c4nc(c(-c5cccc(S(=O)(=O)O)c5F)c5ccc2[nH]5)C=C4)C=C3)c1F` the EC50 was 0.26 ± 0.1 µg/mL (vaccinia virus; viral replication; CV-1, IHD-J).

A few entries again:
With `O=S(=O)(O)c1cccc(-c2c3nc(c(-c4cccc(S(=O)(=O)O)c4F)c4ccc([nH]4)c(-c4cccc(S(=O)(=O)O)c4F)c4nc(c(-c5cccc(S(=O)(=O)O)c5F)c5ccc2[nH]5)C=C4)C=C3)c1F` the EC50 was 0.26 ± 0.1 µg/mL (vaccinia virus; viral replication; CV-1, IHD-J).
`O=C(C=Cc1ccc(O)c(O)c1)OC1CC(O)(C(=O)O)CC(OC(=O)C=Cc2ccc(O)c(O)c2)C1O` (centres unmarked) has an inhibition of 0% (Severe acute respiratory syndrome coronavirus 2; cytopathic effect, inhibitor; Vero C1008; 3.125 µM).
`CN[C@@H]1[C@H](O)[C@H](NC)[C@H]2O[C@]3(O)[C@H](O[C@@H]2[C@H]1O)O[C@H](C)C[C@@]3(O)CNCc1ccc(OC(F)(F)F)cc1` — result for “inhibition zone diameter”: 21 mm (Legionella pneumophila; ATCC 33153; 40 µg per disc, 48 h).
